Assay results from different studies.
Each line is one published result; not all experiments were run side by side. ± marks the error that the study gave.

COc1ccc(OC)c(/C(=C\c2ccc(O)c(O)c2)C(=O)NCCc2ccc(O)cc2)c1 — faecal concentration (C57BL mice, antibiotic-induced dysbacteriosis, faeces; oral, 75 mg/kg of FLZ, 8 weeks, 24 h collection; reference: control mice): decreased
C=C(c1ncc(C(=O)O)cn1)c1cc2c(cc1C)C(C)(C)CCC2(C)C — LDL level (Sprague-Dawley rat, male, plasma; oral, 100 mg/kg, 24 h, sesame oil vehicle): 4 ± 1 mg/dL
CCCC[C@H](NC(=O)CNC(=O)CNC(=O)CN1CCN(CC(=O)O)CCN(CC(=O)O)CC1)C(=O)N[C@H]1CC(=O)NCCCC[C@@H](C(N)=O)NC(=O)[C@H](Cc2c[nH]c3ccccc23)NC(=O)[C@H](CCCNC(=N)N)NC(=O)[C@@H](Cc2ccccc2)NC(=O)[C@H](Cc2c[nH]cn2)NC1=O [copper-64 labelled] — tissue uptake (female C57 mouse, B16/F1 melanoma, bone; intravenous, 0.037 MBq, 4 h): 0.19 ± 0.06 %ID/g
NC12CNCCNCC(NCc3ccc(CNC(=O)CCCC(=O)NCc4ccc(-c5nncnn5)cc4)cc3)(CNCCNC1)CNCCNC2.[64Cu+2] — mean absorbed dose (OLINDA dosimetry; thymus; 48 h pretargeting interval, added: huA33-TCO pretargeting): 0.0325 rad/mCi
C[Si](C)(C)C[C@H](CN)CC(=O)O — performance time (neuromuscular coordination; Wistar rat male; oral, 100 mg/kg, 2 h): 180 s
COc1ccc2cc(-c3ccc(-c4ccc(C)cn4)nc3)oc2c1 — fluorescence lifetime (aqueous HEPES buffer; pH 7.4, zinc-free ligand): 2.48 ns
Cc1ccc(OCC(=O)N(Cc2cccs2)c2ccn[nH]2)cc1 — oral bioavailability (beagle dog, male, plasma; oral gavage, 30 mg/kg): 0.79%
[11CH3]c1ccc2nc(C3CCC3)n(-c3ccc4[nH]ncc4c3)c2n1 — absorbed radiation dose (human male, breasts; extrapolated from mouse biodistribution): 2 µSv/MBq
C=CCNC(=O)NC1CC=C(c2cc3c(Nc4cc5ncsc5cc4F)ncnc3s2)CC1 (racemic) — intrinsic clearance (human liver microsomes; 1 µM): < 12 mL/min/g protein
Cc1ccc(/N=N/c2c(O)ccc3ccccc23)c(C)c1 — freeze-thaw stability deviation (rat whole blood; 16.0 µg/L, freeze-thaw cycle 2): 0.8%
COc1cc(OC)cc(C2=C3C(C)=C(I)C(C)=[N+]3[B-](F)(F)n3c(/C=C/c4c[nH]c5ccc([N+](=O)[O-])cc45)c(I)c(C)c32)c1 — absorption maximum (dichloromethane): 606 nm
COc1ccc(-c2ccn(CC[C@](C)(C(=O)NO)S(C)(=O)=O)c(=O)c2)c(F)c1 — free AUC (CF-1 mouse, female; subcutaneous, 18.75 mg/kg): 1580 ± 320 ng·h/mL
CC/C=C\C/C=C\C/C=C\C/C=C\C/C=C\CCCCOC(CC)C(=O)O (centres unmarked) — tissue concentration (14C radiolabel; Wistar rats male, liver; oral, 100 mg/kg, 4 h): 174 µg/g
C[C@H](Nc1nc(-c2cnccn2)nc(Cl)c1-c1c(F)cc(F)cc1F)C(F)(F)F — brain/plasma unbound AUC ratio (CD1 mouse; intraperitoneal, 5 mg/kg, 16 h): 1.7 ± 0.6
COc1cc(NC(C)=O)c2c(c1O)-c1c(OC)c(OC)cc3c1C(C2)N(C)CC3 (centres unmarked) — remaining compound (rat brain homogenate; 5 µg/mL, 4 h, room temperature, short-term storage): 96.3 ± 3.3%
Nc1ccn(CC(=O)N[C@@H](Cc2ccccc2)C(=O)N[C@@H](Cc2ccccc2)C(=O)O)c(=O)n1 — nanofiber width (TEM; hydrogel in water; 2.0 wt%, pH 5.0 or 7.4, added: alkaline phosphatase at pH 7.4): 10 nm
COCC1CN(C2CCN(c3cc(OC)c(Nc4ncc(Br)c(Nc5ccc6c(c5P(C)(C)=O)OCCO6)n4)cc3C)CC2)C1 — grade ≥3 loss of appetite (human; oral, dose not given; reference: patients): 3.7%
COC(=O)C(c1ccccc1Cl)N1CCC(SCC(=O)c2cccc(OC)c2)C(=CC(=O)O)C1 (mixture of isomers) — deviation from nominal (HPLC-MS/MS; feline EDTA plasma; 100 ng/mL, 24 h, 4 °C, storage stability): 7%
C[C@H]1C[C@@H](Oc2cccc(F)n2)CCN1Cc1cnc(N[11C](C)=O)s1 — radioligand stability (rat brain homogenate; at least 30 min, room temperature): 98.4%
COCCOCCOCCOCCOCCOCCOCCOCCOCCOCCOCCOCCNC(=O)CCC1(CCC(=O)NCCOCCOCCOCCOCCOCCOCCOCCOCCOCCOCCOCCOC)c2ccccc2-c2ccc(-c3sc(-c4c5c(c(-c6sc(-c7ccc8c(c7)C(CCC(=O)NCCOCCOCCOCCOCCOCCOCCOCCOCCOCCOCCOCCOC)(CCC(=O)NCCOCCOCCOCCOCCOCCOCCOCCOCCOCCOCCOCCOC)c7ccccc7-8)c7c6OCCO7)c6nsnc46)N=S=N5)c4c3OCCO4)cc21 — faecal excretion (KM mice, female, faeces; intravenous, dose not given, 24 h; reference: dose): ~3%
O=[N+]([O-])[O-].[NH3+][Pt-2]1([NH3+])[O]C(c2ccccc2)=CC(c2ccccc2)=[O+]1 (centres unmarked) — chemical stability (1H NMR; PBS; up to 25 d, pH 7.4, 37 °C): no effect
C[C@H](CN(C)Cc1ccccc1)NC(=O)c1ccc(-c2noc(C(F)(F)[18F])n2)cc1 — parent tracer fraction (radio-HPLC; Sprague-Dawley rat, female, plasma; intravenous, 60 min): 30 ± 2%
C[C@H](NC(=O)COC(=O)[C@H](C)NC(=O)CO)C(=O)O — depolymerization half-life (water; pH 3, 65 °C): 27.9 h
Cn1c(=O)oc2ccc(-c3ccc(CC(C#N)NC(=O)C4CNCCCO4)c(F)c3)cc21 (centres unmarked) — triglycerides increased incidence (human; oral, 10 mg once daily, TEAE, multiple ascending dose): 66.7%
Cc1cc2c(cc1C1(c3ncc(C(=O)O)cn3)CC1)C(C)(C)CCC2(C)C — blood cholesterol (Sprague-Dawley rat, male; oral, 100 mg/kg, 2 h, sesame oil vehicle): 81 ± 6.5 mg/dL
CCCC(CCC)NC(=O)c1ccc(O)c(O)c1 — AUC(0-last) ratio (male Sprague-Dawley rats, plasma; oral, 200 mg/kg of parent drug; reference: 200 over 20 mg/kg dose): 73.7
O=C([O-])CN1CCN(CC(=O)[O-])CCN(CC(=O)NCC2CCC(C(=O)NC(Cc3ccc4ccccc4c3)C(=O)NCCCCC(NC(=O)NC(CCC(=O)O)C(=O)O)C(=O)O)CC2)CCN(CC(=O)[O-])CC1.[44Sc+3] (centres unmarked) — intact complex (transmetallation stability; 1 h, 37 °C, added: Mg2+ 10 mM): 98.3 ± 0.5%
CCCC[C@H](NC(C)=O)C(=O)N[C@H]1CC(=O)NCCCC[C@@H](C(=O)N[C@@H](C(=O)N2CCC[C@@H]2C(N)=O)C(C)C)NC(=O)[C@H](Cc2c[nH]c3ccccc23)NC(=O)[C@H](CCCN=C(N)N)NC(=O)[C@@H](Cc2ccc3ccccc3c2)NC(=O)[C@@H]2CCCN2C1=O — volume of distribution (Beagle dog, both sexes, plasma; subcutaneous, once daily, 2.25 mg/kg, day 1): 2450 ± 249 mL
NCC(=O)N1CCC[C@H]1C(=O)N1C[C@H](O)C[C@H]1C(=O)O — log beta (potentiometric titration; 40 °C, MAH-3 complex, added: Fe(III)): 2.51
CC(C)C[C@H](NC(=O)C[C@H](O)[C@H](CC(C)C)NC(=O)[C@H](Cc1c[nH]cn1)NC(=O)CNC(=O)[C@@H](NC(=O)[C@H](C)NC(=O)[C@H](Cc1c[nH]c2ccccc12)NC(=O)[C@H](CCC(N)=O)NC(=O)[C@@H](Cc1ccccc1)NC(=O)CCNC(=O)CCNC(=O)CN1CCN(CC(=O)O)CCN(CC(=O)O)CCN(CC(=O)O)CC1)C(C)C)C(N)=O [lutetium-177 labelled] — absorbed dose (MIRD; mouse PC-3 xenograft, pancreas; intraperitoneal, 50 MBq, with PA): 4.8 Gy
C[N+](C)(C)CCO.O=C(O)[C@@H](O)Cc1ccccc1.O=C([O-])[C@@H](O)Cc1ccccc1 — pH (water; concentration not given): 3.87 ± 2.5
N=C(N)NCCC[C@@H]1NC(=O)[C@H](Cc2c[nH]c3ccccc23)NC(=O)[C@@H](CC2CCCCC2)NC(=O)[C@@H]2CCCN2C(=O)[C@@H](NC(=O)CCc2ccccc2)CCCNC1=O — elimination rate constant (C57BL/6J mice, brain; intraperitoneal, 1 mg/kg, two-compartment model): 0.00025 s⁻¹

Repeated from above:
CC/C=C\C/C=C\C/C=C\C/C=C\C/C=C\CCCCOC(CC)C(=O)O (centres unmarked) — tissue concentration (14C radiolabel; Wistar rats male, liver; oral, 100 mg/kg, 4 h): 174 µg/g
CC(C)C[C@H](NC(=O)C[C@H](O)[C@H](CC(C)C)NC(=O)[C@H](Cc1c[nH]cn1)NC(=O)CNC(=O)[C@@H](NC(=O)[C@H](C)NC(=O)[C@H](Cc1c[nH]c2ccccc12)NC(=O)[C@H](CCC(N)=O)NC(=O)[C@@H](Cc1ccccc1)NC(=O)CCNC(=O)CCNC(=O)CN1CCN(CC(=O)O)CCN(CC(=O)O)CCN(CC(=O)O)CC1)C(C)C)C(N)=O [lutetium-177 labelled] — absorbed dose (MIRD; mouse PC-3 xenograft, pancreas; intraperitoneal, 50 MBq, with PA): 4.8 Gy
